Measured values pooled from the literature.
Lines come from different studies, so protocols differ. Numbers after ± are the reported error.
Action: agonist
Toll-like receptor 1/2: Toll-like receptor 1/2 (Homo sapiens, UniProt O60603+Q15399)
UniProt O60603, sequence (whole entry, looked up): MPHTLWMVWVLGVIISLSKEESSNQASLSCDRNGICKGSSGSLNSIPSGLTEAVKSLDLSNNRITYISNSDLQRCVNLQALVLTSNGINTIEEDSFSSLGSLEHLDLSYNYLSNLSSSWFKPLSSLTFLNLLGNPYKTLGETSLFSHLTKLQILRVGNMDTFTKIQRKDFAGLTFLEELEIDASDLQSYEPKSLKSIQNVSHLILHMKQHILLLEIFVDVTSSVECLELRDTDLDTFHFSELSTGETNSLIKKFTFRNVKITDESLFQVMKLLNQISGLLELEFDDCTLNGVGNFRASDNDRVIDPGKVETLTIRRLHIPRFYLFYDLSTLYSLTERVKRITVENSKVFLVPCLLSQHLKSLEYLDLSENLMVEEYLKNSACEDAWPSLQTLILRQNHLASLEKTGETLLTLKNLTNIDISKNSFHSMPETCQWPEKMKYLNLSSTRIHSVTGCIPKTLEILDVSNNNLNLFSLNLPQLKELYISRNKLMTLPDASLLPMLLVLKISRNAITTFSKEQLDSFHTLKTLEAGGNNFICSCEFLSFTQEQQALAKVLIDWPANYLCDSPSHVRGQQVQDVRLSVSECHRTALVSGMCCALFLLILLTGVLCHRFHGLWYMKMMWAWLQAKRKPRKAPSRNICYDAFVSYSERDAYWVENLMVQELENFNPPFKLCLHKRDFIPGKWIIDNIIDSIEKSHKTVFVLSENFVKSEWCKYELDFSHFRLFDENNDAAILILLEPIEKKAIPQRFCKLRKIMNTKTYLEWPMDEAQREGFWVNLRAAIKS
UniProt Q15399, sequence (whole entry, looked up): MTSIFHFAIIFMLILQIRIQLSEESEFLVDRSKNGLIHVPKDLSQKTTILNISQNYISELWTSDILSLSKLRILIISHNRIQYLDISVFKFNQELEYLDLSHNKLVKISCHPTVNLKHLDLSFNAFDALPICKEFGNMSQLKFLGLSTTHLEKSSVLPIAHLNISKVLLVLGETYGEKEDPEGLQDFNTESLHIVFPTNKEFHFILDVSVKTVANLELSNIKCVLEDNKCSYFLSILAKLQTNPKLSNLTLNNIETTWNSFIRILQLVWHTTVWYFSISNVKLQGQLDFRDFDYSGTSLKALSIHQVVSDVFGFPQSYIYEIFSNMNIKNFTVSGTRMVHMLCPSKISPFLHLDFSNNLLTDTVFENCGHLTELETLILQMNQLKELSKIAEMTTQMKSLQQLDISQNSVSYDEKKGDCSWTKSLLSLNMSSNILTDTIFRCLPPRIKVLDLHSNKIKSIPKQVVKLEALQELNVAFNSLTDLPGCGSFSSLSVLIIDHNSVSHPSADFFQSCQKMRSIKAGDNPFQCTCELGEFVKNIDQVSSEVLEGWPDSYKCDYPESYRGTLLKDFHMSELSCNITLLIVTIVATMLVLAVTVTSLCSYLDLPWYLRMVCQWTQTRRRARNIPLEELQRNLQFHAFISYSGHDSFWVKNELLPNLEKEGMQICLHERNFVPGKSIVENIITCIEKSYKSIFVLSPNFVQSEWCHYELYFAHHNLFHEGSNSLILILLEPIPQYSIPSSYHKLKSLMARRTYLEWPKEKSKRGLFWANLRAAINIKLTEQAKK
OR5K1 A2T/I280V/T15M/V39I/Y193C: OR5K1 (Homo sapiens, UniProt Q8NHB7, A2T/I280V/T15M/V39I/Y193C)
UniProt Q8NHB7, sequence (whole entry, unmodified, looked up): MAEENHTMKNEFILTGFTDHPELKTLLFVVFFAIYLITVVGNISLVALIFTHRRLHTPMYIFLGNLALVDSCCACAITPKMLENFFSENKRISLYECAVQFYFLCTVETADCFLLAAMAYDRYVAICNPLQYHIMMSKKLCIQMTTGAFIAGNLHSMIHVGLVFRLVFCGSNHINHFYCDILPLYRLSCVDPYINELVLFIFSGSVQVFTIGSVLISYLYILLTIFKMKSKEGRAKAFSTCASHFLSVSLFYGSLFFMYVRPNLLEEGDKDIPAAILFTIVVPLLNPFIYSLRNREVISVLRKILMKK
ADRA1A: Alpha-1A adrenergic receptor (ADRA1A, Homo sapiens, UniProt P35348)
UniProt P35348, sequence (whole entry, looked up): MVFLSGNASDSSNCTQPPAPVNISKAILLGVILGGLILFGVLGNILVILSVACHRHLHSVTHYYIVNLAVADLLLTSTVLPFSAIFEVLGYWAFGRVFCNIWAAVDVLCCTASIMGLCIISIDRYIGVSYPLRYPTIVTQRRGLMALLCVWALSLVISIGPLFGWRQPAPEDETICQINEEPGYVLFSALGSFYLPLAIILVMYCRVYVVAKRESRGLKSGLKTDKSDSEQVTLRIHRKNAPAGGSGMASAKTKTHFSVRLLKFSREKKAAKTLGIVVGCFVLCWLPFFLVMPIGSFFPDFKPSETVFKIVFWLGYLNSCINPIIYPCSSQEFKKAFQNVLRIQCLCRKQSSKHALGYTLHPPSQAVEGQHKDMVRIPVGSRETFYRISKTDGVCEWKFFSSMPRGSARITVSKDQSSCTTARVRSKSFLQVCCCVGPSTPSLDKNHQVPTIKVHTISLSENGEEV
Tumor necrosis factor receptor superfamily member 9/Nectin-4: Tumor necrosis factor receptor superfamily member 9/Nectin-4 (Homo sapiens, UniProt Q07011+Q96NY8)
UniProt Q96NY8, sequence (whole entry, looked up): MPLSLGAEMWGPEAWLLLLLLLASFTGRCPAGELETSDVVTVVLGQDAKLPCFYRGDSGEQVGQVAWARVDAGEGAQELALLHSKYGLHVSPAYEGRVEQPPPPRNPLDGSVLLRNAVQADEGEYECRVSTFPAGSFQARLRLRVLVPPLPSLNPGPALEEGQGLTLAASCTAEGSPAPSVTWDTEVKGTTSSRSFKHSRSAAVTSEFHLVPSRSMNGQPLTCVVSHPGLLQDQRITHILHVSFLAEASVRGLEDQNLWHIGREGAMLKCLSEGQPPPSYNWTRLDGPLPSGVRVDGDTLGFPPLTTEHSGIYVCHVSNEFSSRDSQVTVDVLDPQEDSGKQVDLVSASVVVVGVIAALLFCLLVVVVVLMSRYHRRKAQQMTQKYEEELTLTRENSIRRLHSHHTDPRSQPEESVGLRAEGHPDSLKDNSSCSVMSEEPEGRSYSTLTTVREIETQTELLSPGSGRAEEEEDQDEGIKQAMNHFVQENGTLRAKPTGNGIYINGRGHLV
UniProt Q07011, sequence (whole entry, looked up): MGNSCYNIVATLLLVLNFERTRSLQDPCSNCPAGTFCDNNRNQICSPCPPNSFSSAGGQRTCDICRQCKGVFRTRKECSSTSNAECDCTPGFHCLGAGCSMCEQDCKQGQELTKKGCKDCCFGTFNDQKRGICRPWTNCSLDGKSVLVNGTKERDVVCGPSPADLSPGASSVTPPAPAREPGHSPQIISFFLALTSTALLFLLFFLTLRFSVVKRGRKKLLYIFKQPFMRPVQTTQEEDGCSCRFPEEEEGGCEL
UniProt P35414, sequence (whole entry, looked up): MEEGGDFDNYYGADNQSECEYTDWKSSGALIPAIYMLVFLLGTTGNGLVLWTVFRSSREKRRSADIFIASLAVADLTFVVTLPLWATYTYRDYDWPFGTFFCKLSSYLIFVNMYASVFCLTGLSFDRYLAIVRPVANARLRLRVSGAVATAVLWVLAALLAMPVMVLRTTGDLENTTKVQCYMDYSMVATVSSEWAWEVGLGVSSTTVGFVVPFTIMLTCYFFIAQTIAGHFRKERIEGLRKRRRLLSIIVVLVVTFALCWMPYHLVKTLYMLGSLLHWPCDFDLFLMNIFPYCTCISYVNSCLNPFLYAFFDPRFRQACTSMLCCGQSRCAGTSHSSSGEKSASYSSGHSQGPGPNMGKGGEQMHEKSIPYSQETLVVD

The EC50 of CNc1ccc([N+](=O)[O-])cc1-n1cnc(-c2ccc(C(=O)O)cc2)c1 is reported as greater than 100 µM (Toll-like receptor 1/2; reporter gene; HEK-Blue hTLR2; 24 h).
CCc1nccnc1OC gave an EC50 of 387 ± 75.8 µM (OR5K1 A2T/I280V/T15M/V39I/Y193C; cAMP; HEK293 transfected with OR5K1).
With Cn1cc2c(C(=O)O)ccc(NS(=O)(=O)c3ccc(OCC4CCC4)c(Cl)c3)c2n1 the EC50 was greater than 10 µM (ADRA1A).
Cc1cncc(C)n1 has an EC50 of 554 ± 160 µM (OR5K1 A2T/I280V/T15M/V39I/Y193C; cAMP; HEK293 transfected with OR5K1).
CNc1ccccc1-n1cnc(-c2ccc([N+](=O)[O-])cc2)c1 has an EC50 of greater than 100 µM (Toll-like receptor 1/2; reporter gene; HEK-Blue hTLR2; 24 h).
CCCC[C@@H]1NC(=O)[C@H](Cc2ccc(O)cc2)NC(=O)[C@@H]2CCCN2C(=O)[C@H](CC(=O)O)NC(=O)[C@H](C)NC(=O)[C@H](Cc2ccccc2)NC(=O)[C@@H]2CSCCC(=O)N3CN(CN(C3)C(=O)CCSC[C@@H](C(=O)N[C@@H](C)C(N)=O)NC1=O)C(=O)CCSC[C@H](NC(C)=O)C(=O)N[C@@H](CC(C)(C)C)C(=O)N1CCC[C@H]1C(=O)N[C@@H](CCC(=O)O)C(=O)N[C@H](CCCCNC(=O)CCOCCOCCOCCOCCOCCOCCOCCOCCOCCOCCOCCOCCn1cc(CCC(=O)NCCC(=O)N(C)CC(=O)N(C)CC(=O)N(C)CC(=O)N(C)CC(=O)N(C)CC(=O)N(C)CC(=O)N(C)CC(=O)N(C)CC(=O)N(C)CC(=O)N(C)CC(=O)N[C@H]3CSCCC(=O)N4CN5CN(C4)C(=O)CCSC[C@H](NC(=O)[C@@H](CC(=O)O)NC(=O)[C@H](Cc4cccc6ccccc46)NC(=O)[C@@H]4CCCN4C3=O)C(=O)N[C@@H](CCSC)C(=O)N[C@@H](CCCCNC(=N)N)C(=O)N[C@@H](CC(=O)O)C(=O)N[C@@H](Cc3c[nH]c4ccccc34)C(=O)N[C@@H](CO)C(=O)N[C@@H]([C@@H](C)O)C(=O)N3CCC[C@H]3C(=O)N3C[C@H](O)C[C@H]3C(=O)N[C@@H](Cc3c[nH]c4ccccc34)C(=O)N[C@H](C(N)=O)CSCCC5=O)nn1)C(=O)N1CCC[C@H]1C(=O)N[C@@H](Cc1ccc(O)cc1)C(=O)N2 gave an EC50 of 0.00206 µM (Tumor necrosis factor receptor superfamily member 9/Nectin-4; reporter gene; HT-1376 coculture with reporter cells).
CCOCc1nc(O)c(-c2nnc(Cc3ccc(Cl)cn3)o2)c(O)c1-c1c(OC)cccc1OC has an EC50 of 0.00391 ± 0.00068 µM (Apelin receptor (APLNR, Homo sapiens, UniProt P35414); Gα12/P115 activation, BRET biosensor; HEK293).
With Nc1ccc(CNc2ccncc2)c(F)c1 the EC50 was greater than 10 µM (ADRA1A; FLIPR reporter; reporter cell line).
The EC50 of CCCC[C@@H]1NC(=O)[C@H](Cc2ccc(O)cc2)NC(=O)[C@@H]2CCCN2C(=O)[C@H](CC(=O)O)NC(=O)[C@H](C)NC(=O)[C@H](Cc2ccccc2)NC(=O)[C@@H]2CSCCC(=O)N3CN(CN(C3)C(=O)CCSC[C@@H](C(=O)N[C@@H](C)C(N)=O)NC1=O)C(=O)CCSC[C@H](NC(C)=O)C(=O)N[C@@H](CC(C)(C)C)C(=O)N1CCC[C@H]1C(=O)N[C@@H](CCC(=O)O)C(=O)N[C@H](CCCCNC(=O)CCc1cn(CCOCCOCCOCCOCCOCCC(=O)N[C@H]3CSCCC(=O)N4CN5CN(C4)C(=O)CCSC[C@H](NC(=O)[C@@H](CC(=O)O)NC(=O)[C@H](Cc4cccc6ccccc46)NC(=O)[C@@H]4CCCN4C3=O)C(=O)N[C@@H](CCSC)C(=O)N[C@@H](CCCCNC(=N)N)C(=O)N[C@@H](CC(=O)O)C(=O)N[C@@H](Cc3c[nH]c4ccccc34)C(=O)N[C@@H](CO)C(=O)N[C@@H]([C@@H](C)O)C(=O)N3CCC[C@H]3C(=O)N3C[C@H](O)C[C@H]3C(=O)N[C@@H](Cc3c[nH]c4ccccc34)C(=O)N[C@H](C(N)=O)CSCCC5=O)nn1)C(=O)N1CCC[C@H]1C(=O)N[C@@H](Cc1ccc(O)cc1)C(=O)N2 is reported as 0.00126 µM (Tumor necrosis factor receptor superfamily member 9/Nectin-4; reporter gene; HT-1376 coculture with reporter cells).
